Measurements pooled from the literature.
Lines come from different studies, so protocols differ. Several values in a cell are separate wells, animals, samples, runs or records. ± marks the error that the study gave.
RPA1 N-terminal domain: Replication protein A 70 kDa DNA-binding subunit, N-terminal domain (RPA1, Homo sapiens, UniProt P27694)
CD28: CD28 (Homo sapiens, UniProt P10747)
CD27: CD27 antigen (CD27, Homo sapiens, UniProt P26842)
EPHA2: Ephrin type-A receptor 2 (EPHA2, Homo sapiens, UniProt P29317)
BTK non-phosphorylated: Tyrosine-protein kinase BTK, non-phosphorylated (BTK, Homo sapiens, UniProt Q06187)
BTLA: B- and T-lymphocyte attenuator (BTLA, Homo sapiens, UniProt Q7Z6A9)
Tumor necrosis factor receptor superfamily member 9: Tumor necrosis factor receptor superfamily member 9 (Homo sapiens, UniProt Q07011)

Chains of the proteins cited; added tags and fusions are not shown. Lines headed by an entry give the natural chain unless they say otherwise; changes in a name come on top. Residues count along the entry.
UniProt P10747, whole entry, looked up: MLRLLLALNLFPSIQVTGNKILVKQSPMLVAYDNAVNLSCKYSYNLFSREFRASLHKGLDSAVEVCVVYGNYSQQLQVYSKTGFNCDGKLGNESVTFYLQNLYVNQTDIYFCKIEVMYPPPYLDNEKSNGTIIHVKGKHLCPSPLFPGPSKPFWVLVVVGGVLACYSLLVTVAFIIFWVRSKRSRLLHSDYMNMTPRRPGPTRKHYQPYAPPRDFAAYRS
UniProt P26842, whole entry, looked up: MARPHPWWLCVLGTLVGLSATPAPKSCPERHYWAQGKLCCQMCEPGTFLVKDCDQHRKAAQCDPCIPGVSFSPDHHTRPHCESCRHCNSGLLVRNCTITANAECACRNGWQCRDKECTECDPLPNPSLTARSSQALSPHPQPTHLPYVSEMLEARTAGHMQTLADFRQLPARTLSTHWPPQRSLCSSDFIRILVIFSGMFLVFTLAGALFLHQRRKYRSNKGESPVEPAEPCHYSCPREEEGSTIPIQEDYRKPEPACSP
UniProt P29317, 596-900 limits assumed: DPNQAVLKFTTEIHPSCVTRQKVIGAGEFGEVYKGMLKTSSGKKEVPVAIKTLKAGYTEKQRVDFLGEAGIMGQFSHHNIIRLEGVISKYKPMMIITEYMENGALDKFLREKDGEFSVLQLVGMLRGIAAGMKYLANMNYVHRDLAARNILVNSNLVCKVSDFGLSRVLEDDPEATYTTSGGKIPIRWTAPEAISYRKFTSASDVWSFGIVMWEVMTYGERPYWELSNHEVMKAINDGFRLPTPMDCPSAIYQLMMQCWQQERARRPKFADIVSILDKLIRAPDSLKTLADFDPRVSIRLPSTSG
UniProt Q06187, whole entry: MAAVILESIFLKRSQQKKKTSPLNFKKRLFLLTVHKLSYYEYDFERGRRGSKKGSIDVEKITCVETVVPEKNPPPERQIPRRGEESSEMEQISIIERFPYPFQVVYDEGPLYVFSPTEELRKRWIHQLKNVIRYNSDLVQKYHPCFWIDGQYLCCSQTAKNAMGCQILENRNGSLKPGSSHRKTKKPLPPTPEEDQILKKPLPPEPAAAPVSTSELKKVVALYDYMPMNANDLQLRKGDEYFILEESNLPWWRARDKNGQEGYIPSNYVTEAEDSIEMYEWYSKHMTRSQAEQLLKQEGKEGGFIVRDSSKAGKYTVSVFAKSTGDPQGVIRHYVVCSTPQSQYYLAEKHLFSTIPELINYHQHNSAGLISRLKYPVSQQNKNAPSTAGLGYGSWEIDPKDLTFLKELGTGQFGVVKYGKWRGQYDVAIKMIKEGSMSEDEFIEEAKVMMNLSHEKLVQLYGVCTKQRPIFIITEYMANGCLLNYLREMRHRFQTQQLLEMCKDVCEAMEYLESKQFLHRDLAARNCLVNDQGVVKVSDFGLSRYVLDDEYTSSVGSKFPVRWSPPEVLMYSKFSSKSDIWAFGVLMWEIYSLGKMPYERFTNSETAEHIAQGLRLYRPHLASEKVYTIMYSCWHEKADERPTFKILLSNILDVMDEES
UniProt Q7Z6A9, whole entry, looked up: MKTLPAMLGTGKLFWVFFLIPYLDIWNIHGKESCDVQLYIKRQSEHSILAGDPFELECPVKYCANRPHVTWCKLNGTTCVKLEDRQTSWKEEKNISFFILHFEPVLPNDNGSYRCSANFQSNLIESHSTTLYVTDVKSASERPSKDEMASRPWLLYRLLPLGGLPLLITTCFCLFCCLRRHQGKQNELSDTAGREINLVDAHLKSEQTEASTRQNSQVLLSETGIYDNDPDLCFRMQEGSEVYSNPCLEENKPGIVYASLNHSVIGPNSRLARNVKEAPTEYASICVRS
UniProt Q07011, whole entry, looked up: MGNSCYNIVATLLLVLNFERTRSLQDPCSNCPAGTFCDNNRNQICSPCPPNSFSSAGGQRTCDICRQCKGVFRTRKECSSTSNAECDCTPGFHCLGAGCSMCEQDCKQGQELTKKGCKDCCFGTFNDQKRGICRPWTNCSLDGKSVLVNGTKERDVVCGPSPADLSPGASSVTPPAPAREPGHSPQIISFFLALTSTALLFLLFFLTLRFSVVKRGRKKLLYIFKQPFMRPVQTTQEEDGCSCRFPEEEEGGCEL
UniProt Q92793, 1081-1197 limits assumed: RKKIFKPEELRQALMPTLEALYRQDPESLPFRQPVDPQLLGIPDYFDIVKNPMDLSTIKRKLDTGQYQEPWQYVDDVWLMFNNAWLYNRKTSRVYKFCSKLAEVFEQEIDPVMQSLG
UniProt P21964, 51-271 limits assumed: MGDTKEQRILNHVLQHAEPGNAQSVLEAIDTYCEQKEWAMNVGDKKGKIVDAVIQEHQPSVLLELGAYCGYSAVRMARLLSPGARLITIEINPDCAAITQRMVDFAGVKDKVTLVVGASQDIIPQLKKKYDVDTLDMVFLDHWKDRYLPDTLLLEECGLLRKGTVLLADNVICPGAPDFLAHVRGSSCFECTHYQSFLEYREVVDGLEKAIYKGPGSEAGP
UniProt P49336, whole entry: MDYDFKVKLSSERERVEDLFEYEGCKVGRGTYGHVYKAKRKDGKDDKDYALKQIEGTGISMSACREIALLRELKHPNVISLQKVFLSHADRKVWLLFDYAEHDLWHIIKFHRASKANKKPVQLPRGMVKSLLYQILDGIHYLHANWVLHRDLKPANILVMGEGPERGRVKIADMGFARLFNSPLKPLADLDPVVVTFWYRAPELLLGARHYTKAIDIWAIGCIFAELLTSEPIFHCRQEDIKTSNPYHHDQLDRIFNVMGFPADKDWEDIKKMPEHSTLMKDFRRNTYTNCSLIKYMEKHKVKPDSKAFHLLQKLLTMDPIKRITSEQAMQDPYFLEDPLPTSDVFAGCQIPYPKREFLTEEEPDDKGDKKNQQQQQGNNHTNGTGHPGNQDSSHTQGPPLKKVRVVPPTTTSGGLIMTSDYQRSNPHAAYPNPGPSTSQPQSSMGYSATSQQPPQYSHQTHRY
UniProt P55217, 69-563 limits assumed: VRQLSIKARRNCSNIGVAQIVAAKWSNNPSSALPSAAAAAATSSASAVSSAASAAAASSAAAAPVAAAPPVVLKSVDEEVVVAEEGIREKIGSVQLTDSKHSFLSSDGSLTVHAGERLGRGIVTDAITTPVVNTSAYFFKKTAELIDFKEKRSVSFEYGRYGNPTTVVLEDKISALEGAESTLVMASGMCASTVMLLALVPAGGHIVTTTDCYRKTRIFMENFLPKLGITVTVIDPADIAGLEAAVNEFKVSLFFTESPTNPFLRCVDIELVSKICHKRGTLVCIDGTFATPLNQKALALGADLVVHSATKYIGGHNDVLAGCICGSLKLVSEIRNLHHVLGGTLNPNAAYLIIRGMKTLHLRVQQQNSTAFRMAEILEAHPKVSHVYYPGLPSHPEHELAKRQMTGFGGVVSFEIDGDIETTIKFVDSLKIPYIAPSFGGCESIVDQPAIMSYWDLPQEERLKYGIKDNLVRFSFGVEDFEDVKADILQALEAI
UniProt P29678, 35-393 S298N/S299K/Y300F limits assumed: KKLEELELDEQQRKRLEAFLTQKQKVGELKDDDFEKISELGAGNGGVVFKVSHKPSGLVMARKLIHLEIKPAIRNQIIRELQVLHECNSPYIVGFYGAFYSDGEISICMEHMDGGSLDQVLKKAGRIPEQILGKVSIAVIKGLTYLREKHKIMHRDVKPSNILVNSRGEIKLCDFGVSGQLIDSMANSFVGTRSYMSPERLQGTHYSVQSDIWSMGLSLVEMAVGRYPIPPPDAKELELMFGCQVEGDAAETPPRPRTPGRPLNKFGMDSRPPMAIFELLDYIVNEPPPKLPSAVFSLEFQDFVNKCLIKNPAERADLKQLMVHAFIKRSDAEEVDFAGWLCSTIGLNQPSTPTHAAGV
UniProt P50552, whole entry, looked up: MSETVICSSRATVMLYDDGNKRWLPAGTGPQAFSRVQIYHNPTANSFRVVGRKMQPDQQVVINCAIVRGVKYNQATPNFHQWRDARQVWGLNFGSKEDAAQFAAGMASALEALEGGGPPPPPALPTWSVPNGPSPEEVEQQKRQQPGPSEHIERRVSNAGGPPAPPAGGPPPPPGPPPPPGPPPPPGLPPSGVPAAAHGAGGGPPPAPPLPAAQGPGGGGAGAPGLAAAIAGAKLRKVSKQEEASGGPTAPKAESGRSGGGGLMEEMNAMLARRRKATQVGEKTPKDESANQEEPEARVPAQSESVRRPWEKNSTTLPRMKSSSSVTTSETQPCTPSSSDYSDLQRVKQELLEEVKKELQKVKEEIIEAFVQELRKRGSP
UniProt Q8IUN9, whole entry, looked up: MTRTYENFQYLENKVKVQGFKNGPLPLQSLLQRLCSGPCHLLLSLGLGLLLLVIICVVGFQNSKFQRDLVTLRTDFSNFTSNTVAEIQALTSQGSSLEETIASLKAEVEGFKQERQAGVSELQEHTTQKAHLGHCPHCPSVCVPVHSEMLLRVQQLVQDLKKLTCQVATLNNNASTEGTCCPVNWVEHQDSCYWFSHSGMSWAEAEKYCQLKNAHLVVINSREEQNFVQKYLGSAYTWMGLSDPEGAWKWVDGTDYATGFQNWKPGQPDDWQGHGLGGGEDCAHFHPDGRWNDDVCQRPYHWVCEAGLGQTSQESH
UniProt Q9Y336, 18-144 C36S limits assumed: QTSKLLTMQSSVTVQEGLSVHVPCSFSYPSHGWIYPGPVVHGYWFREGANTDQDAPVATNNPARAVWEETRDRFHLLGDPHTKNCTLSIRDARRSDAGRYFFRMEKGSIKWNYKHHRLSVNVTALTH
UniProt Q04609, whole entry, looked up: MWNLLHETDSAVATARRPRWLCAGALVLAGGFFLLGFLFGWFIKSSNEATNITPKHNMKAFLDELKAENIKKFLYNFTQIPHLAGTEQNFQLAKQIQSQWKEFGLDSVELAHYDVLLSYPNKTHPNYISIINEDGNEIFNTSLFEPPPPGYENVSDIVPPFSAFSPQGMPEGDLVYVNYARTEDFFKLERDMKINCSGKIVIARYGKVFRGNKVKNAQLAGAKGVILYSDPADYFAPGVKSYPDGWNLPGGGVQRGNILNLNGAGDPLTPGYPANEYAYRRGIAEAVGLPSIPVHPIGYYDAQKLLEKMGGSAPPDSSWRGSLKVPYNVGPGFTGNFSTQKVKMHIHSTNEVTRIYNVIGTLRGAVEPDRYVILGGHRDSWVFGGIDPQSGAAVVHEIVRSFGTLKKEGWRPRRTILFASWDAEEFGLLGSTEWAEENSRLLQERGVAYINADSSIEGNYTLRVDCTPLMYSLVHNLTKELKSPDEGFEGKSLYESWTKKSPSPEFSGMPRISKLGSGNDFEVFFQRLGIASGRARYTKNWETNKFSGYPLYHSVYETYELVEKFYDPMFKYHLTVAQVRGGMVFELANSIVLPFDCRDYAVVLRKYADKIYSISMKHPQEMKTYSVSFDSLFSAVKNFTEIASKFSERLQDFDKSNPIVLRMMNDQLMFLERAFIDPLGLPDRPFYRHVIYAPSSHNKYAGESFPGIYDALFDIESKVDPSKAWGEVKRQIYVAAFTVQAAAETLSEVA
UniProt Q99497, whole entry: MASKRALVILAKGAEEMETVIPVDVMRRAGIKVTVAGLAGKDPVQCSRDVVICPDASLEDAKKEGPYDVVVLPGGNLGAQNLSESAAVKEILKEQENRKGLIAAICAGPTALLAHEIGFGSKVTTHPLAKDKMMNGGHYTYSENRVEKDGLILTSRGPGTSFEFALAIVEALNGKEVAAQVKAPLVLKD
UniProt Q61618, whole entry: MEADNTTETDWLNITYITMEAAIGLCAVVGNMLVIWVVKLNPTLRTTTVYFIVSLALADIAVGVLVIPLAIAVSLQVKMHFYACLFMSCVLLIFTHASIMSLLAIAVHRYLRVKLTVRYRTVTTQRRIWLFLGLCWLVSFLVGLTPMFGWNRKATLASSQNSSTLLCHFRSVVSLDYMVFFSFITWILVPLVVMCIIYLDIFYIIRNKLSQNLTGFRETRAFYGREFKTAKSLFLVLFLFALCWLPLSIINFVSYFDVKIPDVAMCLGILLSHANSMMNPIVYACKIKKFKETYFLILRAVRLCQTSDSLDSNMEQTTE
UniProt Q9UGL1, 1-100 limits assumed: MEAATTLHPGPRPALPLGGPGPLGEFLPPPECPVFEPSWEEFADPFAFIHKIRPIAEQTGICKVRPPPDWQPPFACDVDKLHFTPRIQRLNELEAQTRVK
UniProt Q9UGL1, 375-604 limits assumed: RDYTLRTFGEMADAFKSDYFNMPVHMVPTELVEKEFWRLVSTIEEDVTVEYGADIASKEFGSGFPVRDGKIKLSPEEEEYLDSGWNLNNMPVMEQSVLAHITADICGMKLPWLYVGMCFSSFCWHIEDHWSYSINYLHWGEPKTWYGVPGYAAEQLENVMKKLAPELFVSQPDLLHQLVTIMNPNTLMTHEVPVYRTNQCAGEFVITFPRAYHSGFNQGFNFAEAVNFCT
UniProt P08238, 1-221 limits assumed: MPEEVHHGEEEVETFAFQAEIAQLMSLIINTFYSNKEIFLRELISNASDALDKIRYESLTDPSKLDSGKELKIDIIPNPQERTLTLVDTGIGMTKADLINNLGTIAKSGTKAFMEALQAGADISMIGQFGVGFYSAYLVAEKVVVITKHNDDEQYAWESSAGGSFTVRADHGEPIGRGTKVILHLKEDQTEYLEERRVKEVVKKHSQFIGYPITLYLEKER
UniProt Q9UBZ9, 1158-1251 limits assumed: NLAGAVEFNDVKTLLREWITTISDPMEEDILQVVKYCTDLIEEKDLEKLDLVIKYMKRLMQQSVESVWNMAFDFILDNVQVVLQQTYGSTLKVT

SMILES	target	test	system	conditions	Kd
Cc1noc(C)c1-c1ccc2nc(-c3cnn(CC(C)(C)O)c3)nc(N3CCOC[C@@H]3c3ccccc3)c2c1 (single isomer, unassigned)	CREBBP (Homo sapiens, UniProt Q92793)	BROMOscan competition binding			0.26 µM
Cc1ccc(C(=O)Nc2ccc(Br)cc2C(=O)O)cc1S(=O)(=O)Nc1cccc(Cl)c1	RPA1 N-terminal domain	binding, fluorescence polarisation competition		together with: FITC-ATRIP probe	14 ± 0.5 µM
N[C@@H](CCSC[C@H]1O[C@@H](n2cnc3c(NCCCCNC(=O)CC(NC(=O)c4ccc(C5(C(F)(F)F)N=N5)cc4)C(=O)NCCCOCCOCCOCCCNC(=S)Nc4ccc5c(c4)C(=O)OC54c5ccc(O)cc5Oc5cc(O)ccc54)ncnc32)[C@H](O)[C@@H]1O)C(=O)O (stereo partly drawn)	COMT (Homo sapiens, UniProt P21964)	binding, fluorescence anisotropy			24.1 ± 2.2 µM
Cn1c(=O)oc2c(C(=O)Oc3ccc(-c4ncc[nH]4)cc3)cccc21	CD28	microscale thermophoresis		2% DMSO	18.2 ± 5.4 µM
Cc1n[nH]c(C)c1C(NC(=O)c1cccc2c(C)c(C)[nH]c12)C(=O)O (stereo not drawn)	CD27	binding, microscale thermophoresis			9.75 µM
Cc1ccc(C(=O)Nc2ccc(CN3CCN(C)CC3)c(C(F)(F)F)c2)cc1Nc1nc(-c2cccnc2)nc2c1cnn2C	EPHA2	binding, microscale thermophoresis	kinase domain	25 °C, 5% DMSO	0.005 µM
O=C(Nc1ccccc1C(=O)O)c1cccc(S(=O)(=O)Nc2ccc(Cl)c(Cl)c2)c1	RPA1 N-terminal domain	binding, fluorescence polarisation competition		together with: FITC-ATRIP probe	17 ± 1 µM
COc1ccc([C@H]2OC[C@H](C)[C@@H]([C@@H](C)[C@@H](OC)[C@@H](C)/C=C/C(=O)[C@H](C)[C@@H](C/C=C/N(C)C=O)OC)O2)cc1	Actin, alpha skeletal muscle, monomeric (ACTA1, Oryctolagus cuniculus, UniProt P68135)	Prodan fluorescence titration	G-actin	pH 8.0, together with: 0.2 mM ATP	0.132 ± 0.0134 µM
COc1ccc(CSc2nccc3c2ccn3CC(=O)N2CCC3(CC2)OCCO3)cc1	CD27	binding, microscale thermophoresis			9.33 µM
CN1C(=N)NC(=O)/C1=C/c1cc(Br)c(O)c(Br)c1	Transthyretin (TTR, Homo sapiens, UniProt P02766)	binding, isothermal titration calorimetry		second site, two-site model	1.8 µM
COc1ccc(NC(=O)Nc2nnc(Sc3nc4c(c(=O)n(C)c(=O)n4C)n3C)s2)cc1	Cyclin-dependent kinase 8, with cyclin C (CDK8, Homo sapiens, UniProt P49336)	binding, reporter displacement			0.114 µM
Cc1cc(=O)[nH]c(-c2cccc(NC(=O)c3ccc(O)cc3F)c2)n1	Cystathionine gamma-synthase 1, chloroplastic (CGS1, Arabidopsis thaliana, UniProt P55217)	binding, microscale thermophoresis			9.28 µM
Cc1ccc(C(=O)Nc2ccc(C(C)C)cc2C(=O)O)cc1S(=O)(=O)Nc1ccc(Cl)c(Cl)c1	RPA1 N-terminal domain	binding, fluorescence polarisation competition		together with: FITC-ATRIP probe	3 ± 0.012 µM
Cc1ccnc(NC(=O)c2ccc(-c3nn([C@@H]4CCCN(C(=O)C5CC5)C4)c4ncnc(N)c34)cc2)c1	BTK non-phosphorylated	TR-FRET binding kinetics		37 °C, unphosphorylated enzyme	0.00259 ± 7e-05 µM
Cc1c(=O)n(C)c(Nc2ccc(I)cc2F)c2c(=O)n(C3CC3)c(=O)n(-c3cccc(NC(=O)CCNC(=O)CCOCCOCCOCCOCCOCCOCCOCCOCCOCCOCCOCCOCCNC(=O)CCCCC4SCC5NC(=O)NC54)c3)c12 (stereo not drawn)	MAP2K1 (Oryctolagus cuniculus, UniProt P29678, S298N/S299K/Y300F)	biolayer interferometry		25 °C, together with: ATP 1 mM	0.131 ± 0.0094 µM
CC(=O)N[C@@H](Cc1ccccc1Cl)C(=O)N1CCC[C@]12C=C[C@@H]1CC[C@@H](C(=O)N3CCC[C@@H]4C=C[C@H]5CC[C@@H](C(=O)O)N5C(=O)[C@H]43)N1C2=O	Vasodilator-stimulated phosphoprotein, EVH1 domain (VASP, Homo sapiens, UniProt P50552)	fluorescence titration		25 °C	1.6 µM
Cc1ccc(NC(=O)c2ccc(C)c(S(=O)(=O)Nc3ccc(Cl)c(Cl)c3)c2)c(C(=O)O)c1	RPA1 N-terminal domain	binding, fluorescence polarisation competition		together with: FITC-ATRIP probe	7 ± 0.5 µM
COc1ccc(CC(=O)OCc2ccc(-n3cccn3)cc2)cc1F	CD28	microscale thermophoresis		2% DMSO	24.1 ± 6.3 µM
Cc1ccc(C(=O)Nc2cccc(C)c2C(=O)O)cc1S(=O)(=O)Nc1ccc(Br)cc1	RPA1 N-terminal domain	binding, fluorescence polarisation competition		together with: FITC-ATRIP probe	73 ± 0.5 µM
CC(=O)N[C@H]1[C@@H](O[C@H](C)[C@H](N)C(=O)O)O[C@H](CO)[C@H](O)[C@@H]1O[C@@H]1O[C@H](CO)[C@H](O)[C@H](O)[C@H]1O	CLEC10A, carbohydrate recognition domain (Homo sapiens, UniProt Q8IUN9)	binding, ITC		293 K	5960 µM
Cc1ccc(O)c(C(=O)c2cnc3c(c2)c(C)nn3-c2ccc([N+](=O)[O-])cc2)c1	CD27	binding, microscale thermophoresis			2.04 µM
Cc1ccc(NC(=O)c2ccc(C)c(S(=O)(=O)Nc3ccc(Br)cc3)c2)c(C(=O)O)c1	RPA1 N-terminal domain	binding, fluorescence polarisation competition		together with: FITC-ATRIP probe	33 ± 2 µM
O=S(=O)(O)c1cccc(-n2nc3ccc4cc(S(=O)(=O)O)ccc4c3n2)c1	UBC, ubiquitin (Homo sapiens, UniProt P0CG48)	binding, NMR titration			595 µM

SMILES	target	test	system	conditions	Kd
CC(=O)N[C@H]1[C@H](OCCN=[N+]=[N-])O[C@H](CO)[C@@H](O[C@@H]2O[C@H](CO[C@]3(C(=O)O)C[C@H](O)[C@@H](NC(C)=O)[C@H]([C@H](O)[C@H](O)CNS(=O)(=O)c4ccc(-c5csc(C)n5)s4)O3)[C@H](O)[C@H](O)[C@H]2O)[C@@H]1O	Sialic acid-binding Ig-like lectin 9, V-set domain (SIGLEC9, Homo sapiens, UniProt Q9Y336, C36S)			50 µM protein	13.9 ± 2.3 µM
COCCOCCOCCN1/C(=C/C=C/C=C/C=C/C2=[N+](CCCCCC(=O)NCCCC[C@H](NC(=O)N[C@@H](CCC(=O)O)C(=O)O)C(=O)O)c3ccc(S(=O)(=O)[O-])cc3C2(C)C)C(C)(C)c2ccccc21	FOLH1 (Homo sapiens, UniProt Q04609)	binding, biolayer interferometry			2.48 ± 0.49 µM
O=C1Nc2ccc(F)cc2C1=O	PARK7 (Homo sapiens, UniProt Q99497)	binding, ITC		25 °C, 5% DMSO	0.93 ± 0.05 µM
Cc1cccc(C2NC(=O)c3c(Cl)cccc3N2)c1 (racemic)	Protein polybromo-1, BD2 (PBRM1, Homo sapiens, UniProt Q86U86, Q216E)	ITC		negative control mutant	3.6 ± 0.4 µM
NS(=O)(=O)c1ccc(Cc2c(-c3ccc(F)c(C#CC4CCCC4)c3)nn(-c3nc(C(=O)O)cs3)c2CC2CC2)cc1F	LDHA (Homo sapiens, UniProt P00338)	binding, SPR		together with: NADH	1.9e-05 µM
COc1ccccc1-n1nc(C)nc1C(O)Cc1ccccc1 (stereo not drawn)	BTLA	binding, microscale thermophoresis			9.68 µM
Cc1cccc(C(=O)Nc2cc(-c3cncc4ccccc34)ccc2N2CCN(C)CC2)c1	WDR5 (Homo sapiens, UniProt P61964)	binding, surface plasmon resonance			~116 µM
O[C@@H]1[C@H](O)[C@@H]2C[C@@H]2[C@H]1n1cnc2c(NCc3cccc([125I])c3)nc(Cl)nc21	Adenosine receptor A3 (Mus musculus, UniProt Q61618)	binding, saturation binding	HEK293 cell membranes	2 h, room temperature	0.0049 ± 0.00077 µM
COCCN(CCOC)Cc1c(O)ccc2c1O/C(=C\c1cn(C)c3ccccc13)C2=O	CD27	binding, microscale thermophoresis			1.46 µM
CC(=O)Nc1ncc(CN2CC[C@H](Oc3cccc(F)n3)C[C@@H]2C)s1 [isotope labelled]	Protein O-GlcNAcase (Rattus norvegicus, UniProt Q8VIJ5)	saturation binding	rat hippocampus homogenate	radiolabelled compound	0.0048 ± 0.0037 µM
Cc1ccc(C(=O)Nc2cc(Cl)cc(Cl)c2)cc1Nc1nc(-c2cccnc2)nc2c1cnn2C	EPHA2	binding, microscale thermophoresis	kinase domain	25 °C, 5% DMSO	0.022 µM
CC(C)(C)c1ccnc(NC(=O)c2ccc(-c3nn([C@@H]4CCCN(C(=O)C5CC5)C4)c4ncnc(N)c34)cc2)c1	BTK non-phosphorylated	TR-FRET binding kinetics		37 °C, unphosphorylated enzyme	0.055 ± 0.002 µM
Cc1ccc(-c2noc(CCC(=O)NCCc3ccccc3)n2)c(=O)n1C(C)C	BTLA	binding, microscale thermophoresis			1.78 µM
Cc1ccc(C(=O)Nc2ccc(Br)cc2C(=O)O)cc1S(=O)(=O)Nc1ccc(Cl)c(Cl)c1	RPA1 N-terminal domain	binding, fluorescence polarisation competition		together with: FITC-ATRIP probe	8 ± 1.3 µM
COc1ccccc1CN(CCCO)C(=O)Nc1ccc(C)s1	Tumor necrosis factor receptor superfamily member 9	binding, microscale thermophoresis			13.5 µM
Cc1ccc(C(=O)Nc2ccccc2C(=O)O)cc1S(=O)(=O)Nc1ccc(Cl)c(Cl)c1	RPA1 N-terminal domain	binding, fluorescence polarisation competition		together with: FITC-ATRIP probe	7 ± 3 µM
CCCCCCCCCCCCCCCCCC(=O)O[C@@H](CN=[N+]=[N-])[C@H](COP(=O)(O)O)OC(=O)CCCCCCCCCCCCCCCCC	Protein kinase C alpha type, C2 domain (PRKCA, Homo sapiens, UniProt P17252)	PKCα C2 domain binding, surface plasmon resonance	POPC:POPE:PA 55:40:5 vesicles	pH 7.4, 25 °C, 5 mol% PA, together with: 1 mM CaCl2	0.73 ± 0.13 µM
Cc1cc(C)nc(N=C(NCCc2c[nH]c3ccc(Cl)cc23)NC(=S)Nc2ccccc2C)n1	Tumor necrosis factor receptor superfamily member 9	binding, microscale thermophoresis			4.13 µM
Cc1[nH]c2c(C#N)cnn2c(=O)c1C(C)C	KDM5B (Homo sapiens, UniProt Q9UGL1)	binding, isothermal titration calorimetry			0.025 to 0.05 µM
C/C=C/Cn1c(Cc2cc(OC)c(OC)c(OC)c2)nc2c(N)ncnc21	Heat shock protein HSP 90-beta, N-terminal domain (HSP90AB1, Homo sapiens, UniProt P08238)	isothermal titration calorimetry		298 K	4.24 µM and 4.2 µM
COc1cc(C(=O)N2CCC(N3CCN(C)CC3)CC2)ccc1Nc1ncc2c(n1)N(C1CCCC1)c1ccccc1C(=O)N2C	Bromodomain-containing protein 4, BD1 (BRD4, Homo sapiens, UniProt O60885)	isothermal titration calorimetry			0.156 ± 0.012 µM
Cc1cccc(N=Nc2ccc(N)nc2N)c1C	DNA repair protein REV1, C-terminal domain (Homo sapiens, UniProt Q9UBZ9)	microscale thermophoresis		cis-trans isomer mixture, together with: labelled DNA repair protein REV1 20 nM	32 ± 20 µM

Some of these lines once more:
SMILES	target	test	system	conditions	Kd
Cc1ccc(C(=O)Nc2ccc(C(C)C)cc2C(=O)O)cc1S(=O)(=O)Nc1ccc(Cl)c(Cl)c1	RPA1 N-terminal domain	binding, fluorescence polarisation competition		together with: FITC-ATRIP probe	3 ± 0.012 µM
Cc1ccnc(NC(=O)c2ccc(-c3nn([C@@H]4CCCN(C(=O)C5CC5)C4)c4ncnc(N)c34)cc2)c1	BTK non-phosphorylated	TR-FRET binding kinetics		37 °C, unphosphorylated enzyme	0.00259 ± 7e-05 µM
